Measurements gathered from unrelated publications.
Every numbered part comes from another study and shows a few of its results, in no order. Substitutions count along the parent as printed.
Sequence of UniProt Q13976 (whole entry, looked up): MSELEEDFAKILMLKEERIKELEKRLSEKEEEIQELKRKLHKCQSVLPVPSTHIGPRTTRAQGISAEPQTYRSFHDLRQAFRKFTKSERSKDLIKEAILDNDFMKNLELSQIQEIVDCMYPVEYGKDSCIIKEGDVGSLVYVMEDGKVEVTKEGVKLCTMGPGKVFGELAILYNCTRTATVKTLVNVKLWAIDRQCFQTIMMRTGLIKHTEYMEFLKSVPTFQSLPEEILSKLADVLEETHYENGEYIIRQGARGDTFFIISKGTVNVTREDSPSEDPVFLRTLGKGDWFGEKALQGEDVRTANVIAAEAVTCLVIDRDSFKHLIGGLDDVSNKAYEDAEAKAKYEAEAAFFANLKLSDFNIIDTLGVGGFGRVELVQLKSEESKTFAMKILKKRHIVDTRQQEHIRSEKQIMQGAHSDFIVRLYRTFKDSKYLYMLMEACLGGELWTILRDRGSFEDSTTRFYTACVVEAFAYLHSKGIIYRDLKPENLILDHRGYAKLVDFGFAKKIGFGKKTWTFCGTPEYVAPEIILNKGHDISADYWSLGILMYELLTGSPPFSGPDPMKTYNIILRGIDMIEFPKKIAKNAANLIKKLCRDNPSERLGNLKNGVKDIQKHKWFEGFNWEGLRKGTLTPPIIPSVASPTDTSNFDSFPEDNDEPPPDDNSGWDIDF
Sequence of UniProt P53355 (whole entry, looked up): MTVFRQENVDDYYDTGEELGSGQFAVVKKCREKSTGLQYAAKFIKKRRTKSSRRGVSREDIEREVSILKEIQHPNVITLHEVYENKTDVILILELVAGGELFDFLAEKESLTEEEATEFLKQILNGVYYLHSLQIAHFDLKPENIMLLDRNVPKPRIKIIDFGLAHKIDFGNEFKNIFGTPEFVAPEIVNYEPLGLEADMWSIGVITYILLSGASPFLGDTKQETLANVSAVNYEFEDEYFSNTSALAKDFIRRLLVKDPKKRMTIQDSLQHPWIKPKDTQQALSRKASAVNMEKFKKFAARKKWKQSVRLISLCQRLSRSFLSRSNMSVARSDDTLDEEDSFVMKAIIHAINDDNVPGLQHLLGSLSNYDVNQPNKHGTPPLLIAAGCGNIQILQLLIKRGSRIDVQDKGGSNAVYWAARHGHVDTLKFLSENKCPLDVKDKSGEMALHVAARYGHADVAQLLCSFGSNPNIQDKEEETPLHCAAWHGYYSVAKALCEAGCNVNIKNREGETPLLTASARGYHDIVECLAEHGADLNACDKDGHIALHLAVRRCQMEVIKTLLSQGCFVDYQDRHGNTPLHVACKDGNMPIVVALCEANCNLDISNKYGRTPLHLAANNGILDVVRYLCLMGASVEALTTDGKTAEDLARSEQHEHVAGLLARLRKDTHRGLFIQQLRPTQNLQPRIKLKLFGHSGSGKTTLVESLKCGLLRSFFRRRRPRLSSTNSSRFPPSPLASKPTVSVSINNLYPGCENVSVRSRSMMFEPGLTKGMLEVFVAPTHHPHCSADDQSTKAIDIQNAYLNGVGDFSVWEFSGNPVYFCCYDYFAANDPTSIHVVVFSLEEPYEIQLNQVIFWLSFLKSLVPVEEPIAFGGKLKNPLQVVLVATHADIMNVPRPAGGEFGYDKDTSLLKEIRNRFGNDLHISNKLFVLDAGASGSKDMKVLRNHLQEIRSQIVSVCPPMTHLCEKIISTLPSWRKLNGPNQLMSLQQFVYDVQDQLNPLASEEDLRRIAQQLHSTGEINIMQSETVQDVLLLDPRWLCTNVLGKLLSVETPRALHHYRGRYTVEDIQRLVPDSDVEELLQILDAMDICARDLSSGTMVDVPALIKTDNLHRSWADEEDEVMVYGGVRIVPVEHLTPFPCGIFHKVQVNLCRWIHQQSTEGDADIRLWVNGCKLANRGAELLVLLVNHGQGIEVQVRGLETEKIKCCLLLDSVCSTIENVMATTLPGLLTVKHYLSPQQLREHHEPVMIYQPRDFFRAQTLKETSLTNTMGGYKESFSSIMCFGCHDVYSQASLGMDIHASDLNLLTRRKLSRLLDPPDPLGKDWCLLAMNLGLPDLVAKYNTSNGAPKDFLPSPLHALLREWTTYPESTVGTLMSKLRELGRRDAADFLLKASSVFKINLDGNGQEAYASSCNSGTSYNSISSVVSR
Sequence of UniProt P51955 (whole entry, looked up): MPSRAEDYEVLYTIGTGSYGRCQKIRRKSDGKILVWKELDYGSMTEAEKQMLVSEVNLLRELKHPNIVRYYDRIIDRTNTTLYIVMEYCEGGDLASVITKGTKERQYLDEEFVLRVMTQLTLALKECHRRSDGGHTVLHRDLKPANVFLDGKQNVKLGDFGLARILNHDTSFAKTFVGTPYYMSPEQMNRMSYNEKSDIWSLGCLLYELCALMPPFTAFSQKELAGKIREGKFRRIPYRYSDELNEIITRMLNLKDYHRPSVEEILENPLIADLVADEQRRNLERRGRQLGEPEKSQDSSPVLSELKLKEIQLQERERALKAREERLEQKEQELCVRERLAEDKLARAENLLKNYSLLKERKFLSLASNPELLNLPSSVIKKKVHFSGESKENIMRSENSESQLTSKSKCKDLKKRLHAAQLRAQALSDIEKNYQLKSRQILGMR
Sequence of UniProt P45985 (whole entry, looked up): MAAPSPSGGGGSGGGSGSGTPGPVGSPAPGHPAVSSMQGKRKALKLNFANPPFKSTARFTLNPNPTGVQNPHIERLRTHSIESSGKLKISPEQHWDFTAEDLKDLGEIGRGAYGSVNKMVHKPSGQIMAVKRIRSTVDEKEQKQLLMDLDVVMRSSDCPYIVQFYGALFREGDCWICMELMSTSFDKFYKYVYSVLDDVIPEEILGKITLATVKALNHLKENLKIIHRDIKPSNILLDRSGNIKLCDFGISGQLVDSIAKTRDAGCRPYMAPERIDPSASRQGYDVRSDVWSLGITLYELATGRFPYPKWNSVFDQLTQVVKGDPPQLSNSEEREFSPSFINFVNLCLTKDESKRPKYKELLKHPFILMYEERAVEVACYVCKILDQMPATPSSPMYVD
Sequence of UniProt Q13557 (whole entry, looked up): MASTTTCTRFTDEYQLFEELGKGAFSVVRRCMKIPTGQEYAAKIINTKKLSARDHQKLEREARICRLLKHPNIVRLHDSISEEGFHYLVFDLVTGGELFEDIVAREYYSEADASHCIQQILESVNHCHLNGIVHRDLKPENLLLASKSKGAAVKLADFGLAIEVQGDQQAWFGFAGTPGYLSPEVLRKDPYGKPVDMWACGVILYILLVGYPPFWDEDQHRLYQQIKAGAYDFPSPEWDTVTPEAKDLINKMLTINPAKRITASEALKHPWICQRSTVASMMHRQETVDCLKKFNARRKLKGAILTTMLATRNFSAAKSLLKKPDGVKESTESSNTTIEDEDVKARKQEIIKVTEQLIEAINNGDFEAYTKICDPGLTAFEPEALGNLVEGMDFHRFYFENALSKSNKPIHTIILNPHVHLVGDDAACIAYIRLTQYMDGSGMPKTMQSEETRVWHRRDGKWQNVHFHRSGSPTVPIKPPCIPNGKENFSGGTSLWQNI
Sequence of UniProt P51956 (whole entry, looked up): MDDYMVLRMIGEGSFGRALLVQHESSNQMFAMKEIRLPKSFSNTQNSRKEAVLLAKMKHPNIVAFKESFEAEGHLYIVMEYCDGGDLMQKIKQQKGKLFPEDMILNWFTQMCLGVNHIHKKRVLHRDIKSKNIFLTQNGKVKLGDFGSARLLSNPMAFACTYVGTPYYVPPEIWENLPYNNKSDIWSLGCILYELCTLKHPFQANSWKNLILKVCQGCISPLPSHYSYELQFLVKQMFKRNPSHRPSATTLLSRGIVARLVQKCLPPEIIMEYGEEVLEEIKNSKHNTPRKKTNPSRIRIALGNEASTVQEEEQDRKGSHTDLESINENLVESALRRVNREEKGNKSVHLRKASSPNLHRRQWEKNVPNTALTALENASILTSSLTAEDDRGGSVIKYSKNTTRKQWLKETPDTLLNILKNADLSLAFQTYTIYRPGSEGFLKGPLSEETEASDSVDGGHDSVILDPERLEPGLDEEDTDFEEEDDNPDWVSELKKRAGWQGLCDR
Sequence of UniProt O14920 (whole entry, looked up): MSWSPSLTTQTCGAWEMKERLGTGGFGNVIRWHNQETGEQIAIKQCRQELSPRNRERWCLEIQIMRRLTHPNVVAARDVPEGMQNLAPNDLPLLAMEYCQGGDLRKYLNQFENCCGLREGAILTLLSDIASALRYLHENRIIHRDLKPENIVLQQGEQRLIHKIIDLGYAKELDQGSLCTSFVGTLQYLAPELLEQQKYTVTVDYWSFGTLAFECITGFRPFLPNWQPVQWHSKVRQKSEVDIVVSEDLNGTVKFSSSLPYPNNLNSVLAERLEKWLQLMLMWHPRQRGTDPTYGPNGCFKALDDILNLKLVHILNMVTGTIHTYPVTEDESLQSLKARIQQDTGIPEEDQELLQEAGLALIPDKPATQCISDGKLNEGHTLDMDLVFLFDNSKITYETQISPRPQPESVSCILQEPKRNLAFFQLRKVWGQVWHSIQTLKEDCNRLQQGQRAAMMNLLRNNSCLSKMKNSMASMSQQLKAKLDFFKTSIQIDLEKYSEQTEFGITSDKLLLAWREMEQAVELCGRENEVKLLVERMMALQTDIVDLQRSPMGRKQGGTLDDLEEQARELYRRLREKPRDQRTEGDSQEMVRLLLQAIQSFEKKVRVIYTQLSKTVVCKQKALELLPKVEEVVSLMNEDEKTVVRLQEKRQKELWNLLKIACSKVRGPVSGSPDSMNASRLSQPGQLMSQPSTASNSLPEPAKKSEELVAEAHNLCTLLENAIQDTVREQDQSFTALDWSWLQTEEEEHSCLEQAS

Study 1
Target: ABI1, truncated, D143A, DHFR fusion (Arabidopsis thaliana)
Method: DHFR PCA, deep sequencing
Medium: yeast
Notes: methotrexate growth selection, single substitutions
Added: (+)-ABA 2500 µM
Reference: wild-type fitted maximum
Reading: higher = stronger binding
Starting sequence: PYL1, truncated, DHFR fusion (Arabidopsis thaliana); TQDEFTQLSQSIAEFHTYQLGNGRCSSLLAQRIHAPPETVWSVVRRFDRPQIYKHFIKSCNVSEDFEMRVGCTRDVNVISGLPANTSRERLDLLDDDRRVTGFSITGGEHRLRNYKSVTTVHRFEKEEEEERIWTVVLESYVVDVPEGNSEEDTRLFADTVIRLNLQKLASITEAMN
Substitution	relative binding score [%]
R74Y	0.131
N114T	75.9
F66Q	96
S150E	88.3
S26Q	91.9
A158V	98.4
E67F	92.9
L93N	94.2

Study 2
Compound: CN([C@@H](Cc1ccc(OS(=O)(=O)c2cccc3cnccc23)cc1)C(=O)N1CCN(c2ccccc2)CC1)S(=O)(=O)c1cccc2cnccc12
Effect on: enzyme activity
Action: inhibitor
Concentration: 0.5 µM
Reference: control
target	remaining activity [%]
STK39 (Homo sapiens, UniProt Q9UEW8)	93.5
MAP3K3 (Homo sapiens, UniProt Q99759)	96.4
IKBKB (Homo sapiens, UniProt O14920)	96.7
Tyrosine-protein kinase Lyn, isoform B (LYN, Homo sapiens, UniProt P07948)	92.1
cGMP-dependent protein kinase 1, isoform beta (PRKG1, Homo sapiens, UniProt Q13976)	84.2
NEK2 (Homo sapiens, UniProt P51955)	87.4
DAPK1 (Homo sapiens, UniProt P53355)	117
DAPK2 (Homo sapiens, UniProt Q9UIK4)	99.7
GRK3 (Homo sapiens, UniProt P35626)	113
CAMK2D (Homo sapiens, UniProt Q13557)	92.8

Study 3
Target: Phosphate system positive regulatory protein PHO4, full length, GST-tagged (PHO4, Saccharomyces cerevisiae, UniProt P07270, residues 1-312)
Sequence of UniProt P07270 (whole entry, looked up): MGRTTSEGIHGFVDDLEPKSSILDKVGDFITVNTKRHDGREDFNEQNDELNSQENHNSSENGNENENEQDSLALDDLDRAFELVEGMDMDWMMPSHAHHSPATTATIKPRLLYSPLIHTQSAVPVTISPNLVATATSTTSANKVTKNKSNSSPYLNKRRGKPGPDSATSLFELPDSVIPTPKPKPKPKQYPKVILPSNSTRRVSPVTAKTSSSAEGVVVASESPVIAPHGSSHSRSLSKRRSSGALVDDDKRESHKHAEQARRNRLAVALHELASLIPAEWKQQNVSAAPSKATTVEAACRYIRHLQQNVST
Method: competition protein-binding microarray
Form: double-stranded DNA, one strand shown
Medium: in vitro
Concentration: 2 µM
Notes: whole 60-bp probe, lowest competitor level
Added: Cbf1 competitor, 0.05 µM
Reading: higher = stronger binding
Shared flanks, not repeated: … GTCTTGATTCGCTTGACGCTGCTG
Oligonucleotide	fluorescence intensity
GAGGTCGCTGCTCAACACGTACATGCAGAAGTAGTG	7180 a.u.
AAGGCCTGGTCAACCATCGTGTAGGCGTCAAGCTTA	7000 a.u.
ACTACTTTGAAGAATTGCGTGATGGATATCAAACTT	5560 a.u.
CTATACCTGACGGTCCACGGGGTTGGCAGCCCGGTC	7970 a.u.
AGATTTAGTCTATCCCACATGACAGGCAACAGCTCG	8280 a.u.
TTTCTTTTCCACTATTACGTGGTGATTCCAGTAGCG	4970 a.u.
CGTCCTAGTGATTTTCACGTGTGGTCCATGAGGAAG	12000 a.u.
AAATTACTAAGTTGCCAGGTGGGTGACGCCGTATGA	5770 a.u.

Study 4
Structure (SMILES): C[C@@]1(Cc2ccc(C#N)cc2)C(=O)N(c2cc(Cl)cc(Cl)c2)c2ncc(C(=O)NC3(c4nc(C5CCC5)no4)CC3)n21
Concentration: 1 µM
target	test	remaining binding [%]
MAP2K4 (Homo sapiens, UniProt P45985)	cell-free assay, competition with immobilised ligand	100
NEK3 (Homo sapiens, UniProt P51956)	cell-free assay, competition with immobilised ligand	100
Ribosomal protein S6 kinase alpha-4, N-terminal kinase domain (RPS6KA4, Homo sapiens, UniProt O75676)	cell-free assay, competition with immobilised ligand	95
AAK1 (Homo sapiens, UniProt Q2M2I8)	binding	100
ERN1 (Homo sapiens, UniProt O75460)	cell-free assay, competition with immobilised ligand	82
PRKD3 (Homo sapiens, UniProt O94806)	cell-free assay, competition with immobilised ligand	87

Repeated from above (study 1):
Substitution	relative binding score [%]
S26Q	91.9
S150E	88.3
R74Y	0.131
E67F	92.9
